Measurements collected from several papers.
Every numbered part comes from another study and shows a few of its results, in no order.

Study 1 — technique: protein binding microarray; form: double-stranded DNA, one strand shown; sample: in vitro; concentration: not given; baseline: not given; direction: higher = stronger binding
Target: Histone acetyltransferase KAT6A, winged helix 2, GST fusion (KAT6A, Homo sapiens, UniProt Q92794, residues 85-181)
Setting: 8-mer, flanks averaged, mean of 2 arrays, mostly near background
Construct (chain): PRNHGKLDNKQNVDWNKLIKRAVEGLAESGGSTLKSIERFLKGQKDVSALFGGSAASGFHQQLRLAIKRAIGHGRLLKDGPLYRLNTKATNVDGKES
`AATTGAGT` has an E-score of -0.0411.
`CGGTGTAC` has an E-score of -0.0284.
For `AGACGTCT`, the E-score was -0.206.
`AAAATGTT` has an E-score of -0.0975.
The E-score of `ATACTCCC` is reported as 0.023.
The E-score of `AACAGGTA` is reported as -0.239.
The E-score of `CTCTAGAA` is reported as -0.139.
With `AAGACAGT` the E-score was -0.0159.
`ATACAGAA` has an E-score of 0.0468.
`ACAACGCT` has an E-score of -0.0823.
With `TCATTTCA` the E-score was 0.0043.
`GGCGGGTA` has an E-score of 0.122.
`GGGGGTAA` has an E-score of -0.0589.
With `CCCTAATC` the E-score was -0.0365.
With `CACACCCC` the E-score was -0.152.
`ACTTCAAC` has an E-score of -0.0969.
`ATTAATCA` gave an E-score of -0.00813.
The E-score of `CGTAAAAG` is reported as -0.113.

Study 2 — technique: RNA Bind-n-Seq; form: RNA; sample: in vitro; concentration: 365 nM; baseline: no-protein control; direction: higher = stronger binding
Target: RNA binding protein fox-1 homolog 2, RRM domain, GST-SBP tag (RBFOX2, Homo sapiens, UniProt O43251-10, residues 100-194)
Setting: natural RNA segment, single round, ends assumed
Construct (chain): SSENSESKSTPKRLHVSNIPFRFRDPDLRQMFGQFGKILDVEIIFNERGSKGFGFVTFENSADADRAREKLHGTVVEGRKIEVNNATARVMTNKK
`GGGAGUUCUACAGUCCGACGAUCUCCUUACCUGACCCCCUACGAGUUUACAGGUCUGUGGCAAUACUCUUAACCAUAAGAAUUGAAAUGGUGAAGAAACAAGUAUACACUAGAGGCUCUUAAAAGUAUUGAAAUGGAAUUCUCGGGUGCCAA`: “RBNS enrichment (R)” 0.383.
`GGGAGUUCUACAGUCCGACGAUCAAUAUCUAGAAACACCACUUCCCUCCAACCUGCGACUUUUGUACAAAAUUCAGAGAAUCUGUAAAGAACCCCCCACCCCUCAAAAAAGCCUAAGCACUUGCUGUUGUUCUUGGAAUUCUCGGGUGCCAA`: “RBNS enrichment (R)” 0.908.
For `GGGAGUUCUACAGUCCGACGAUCAGGAAUGGGCUGUGAGACUGGAUAGUUAUGGUGCAUCAAGGCUGAUCCUUCUGAUUGGGUGGGGCGAGCAUCCCAGUGUCCAAAAAUUCCAGCCUAAAUGACAGGUCCUCUGGAAUUCUCGGGUGCCAA`, “RBNS enrichment (R)” read 1.62.
`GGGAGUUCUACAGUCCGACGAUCCCGCCUCCCGGGUUCAAGUGAUCGUCCUGCCUUAGGCUCCUGAGUAGCUGGGGAUUACAGGUGCCUACCAGCAUGCUCGGCUAAUUUUUUUGUAUUUUUAGUAGAGAAGGUGGAAUUCUCGGGUGCCAA`: “RBNS enrichment (R)” 0.873.
`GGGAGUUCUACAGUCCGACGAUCACAGGUUUUCAGAGAAUUAUCUCAAGUAAAACAAAUGAAAUUUAAUUACAAACAAUAAGAACAAGUUUUGGCAGCCAUGAUAAUAGGUCAUAUGUUGUGUUUGGUUCAAUUGGAAUUCUCGGGUGCCAA` — result for “RBNS enrichment (R)”: 0.911.
For `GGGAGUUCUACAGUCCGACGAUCGAUGGGUGGGGAAGAGGUUGCUCUUUACUCUCCAUCUCUGACACAAAGUGUAGCUGCUAGAGGGAUGACCUCUCCUUCAACUUGUCCUGAAGCACUUACAUUUAGUUGUUUGGAAUUCUCGGGUGCCAA`, “RBNS enrichment (R)” read 0.297.
`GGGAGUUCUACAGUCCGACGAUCGUAUCACCUUCACUGACUCCAUUGAGUCAUUGAGCAUCUGUACAUAUCCUUCACCACCCCCAGUCCCAGCACCUGUGUCAGUAAAGAAAGUGGACACAUUAGUAAUGGUUUGGAAUUCUCGGGUGCCAA` — result for “RBNS enrichment (R)”: 0.405.
`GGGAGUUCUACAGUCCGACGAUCUUCUCCUCCAGUGGACCUGAAGGACGAGGGAUGGGAUUUCAUGUAACCAAGAGUAUUCCAUUUUUACUAAAGCAGUGUUUUCACCUCAUAUGCUAUGUUAGAAGUCCAGGUGGAAUUCUCGGGUGCCAA`: “RBNS enrichment (R)” 0.334.
For `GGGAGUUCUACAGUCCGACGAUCACUUAGGAAGUAAAUAUCUUUUGAAUUAGAGAAAGUGUUGGGACAGAAAGUACUUUAUGUAACUAAGUGGGCUGUUCAGAAGCUUAGAGGUCAUUUUUUGUAAUUUUCUUUGGAAUUCUCGGGUGCCAA`, “RBNS enrichment (R)” read 1.2.
`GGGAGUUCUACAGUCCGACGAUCUUGAUGGAUAAGUUACAGAGUUCUGGAGGAGAACAAGGUGAAAGCCUGGGUGCUGGAGAGGAAGGAAACAGUUAAAGGGUAGUUACUUGGUAUCCACCUUCAUGAUUUUAUGGAAUUCUCGGGUGCCAA`: “RBNS enrichment (R)” 0.77.
`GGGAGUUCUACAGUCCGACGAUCGUUUGUUUCUCCAAGCCUGCUUUGUGCUUCUCACCUUUGGGUGGGAUGCCUUGCCAGUGUGUCUUACUUGGUUGCUGAACAUCUUGCCACCUCCGAGUGCUUUGUCUCCAUGGAAUUCUCGGGUGCCAA`: “RBNS enrichment (R)” 0.261.
`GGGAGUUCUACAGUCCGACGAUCUUAAAAAGAUAAAACAAGAUAAUGGGUUCUUUGUAUUGGCACUUUGCACCAGAAACAUAUCAUUAUUUAUUGAUGUGAUUACUUAUUUGUUAUCCACCUUGUACUAGUAAUGGAAUUCUCGGGUGCCAA` — result for “RBNS enrichment (R)”: 0.484.

Study 3 — technique: universal PBM; form: double-stranded DNA, one strand shown; sample: in vitro; concentration: not given; direction: higher = stronger binding
Target: Sal-like protein 4, full length isoform B (SALL4, Homo sapiens, UniProt Q9UJQ4-2, residues 1-616)
Setting: 8-mer, flanks averaged, mean of replicates
For `CAAAAGTC`, the E-score was -0.13.
For `ACATTCTG`, the E-score was 0.105.
For `ACCCTCGC`, the E-score was -0.221.
The E-score of `AACGCCAC` is reported as -0.233.
`GGGATCAA` has an E-score of 0.0247.
With `AGACGGCT` the E-score was -0.264.
The E-score of `AGGGTTTC` is reported as -0.0206.
For `CTCTTATA`, the E-score was 0.278.
For `TGATGGCA`, the E-score was 0.0273.
`ACTGGTTC` gave an E-score of -0.0919.
`AGGGAGCC` gave an E-score of -0.389.
`GAGTAAAC` has an E-score of 0.0491.
`CACGTGGC` has an E-score of -0.225.
`GCTATGAC` gave an E-score of 0.124.
For `AATGCACG`, the E-score was 0.023.
The E-score of `CCAAGCCA` is reported as -0.0684.
`CACACCGC` gave an E-score of -0.336.
For `AGAGGCAT`, the E-score was -0.011.
`CAATGTAC` gave an E-score of 0.0581.
`GAATCAAA` gave an E-score of -0.0608.
The E-score of `GGAGACAC` is reported as -0.0884.
`GCCGGCGC` gave an E-score of -0.314.
`ATTATAGC` gave an E-score of 0.216.
`AGCTCTGA` gave an E-score of -0.226.

Study 4 — technique: EMSA with sequencing; form: double-stranded DNA, one strand shown; sample: in vitro; concentration: 10 and 20 nM; baseline: negative control set to 0; direction: higher = stronger binding
Target: Hepatocyte nuclear factor 3-alpha (Foxa1, Mus musculus, UniProt P35582, residues 1-468, full length assumed)
UniProt P35582, sequence (whole entry, looked up): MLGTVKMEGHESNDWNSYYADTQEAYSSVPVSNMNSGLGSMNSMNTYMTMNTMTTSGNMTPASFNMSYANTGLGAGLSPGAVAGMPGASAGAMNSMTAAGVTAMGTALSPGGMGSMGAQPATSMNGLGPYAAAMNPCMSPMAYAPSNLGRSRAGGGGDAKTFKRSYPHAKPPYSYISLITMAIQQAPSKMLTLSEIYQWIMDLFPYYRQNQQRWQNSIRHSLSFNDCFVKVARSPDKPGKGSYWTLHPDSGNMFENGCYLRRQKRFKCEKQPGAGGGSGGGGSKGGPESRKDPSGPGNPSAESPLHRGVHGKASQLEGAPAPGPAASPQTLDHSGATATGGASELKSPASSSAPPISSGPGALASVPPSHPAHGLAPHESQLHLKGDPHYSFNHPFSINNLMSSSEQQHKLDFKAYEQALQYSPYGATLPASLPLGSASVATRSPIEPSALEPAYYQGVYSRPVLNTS
Setting: whole designed probe, mean of two concentrations, ends assumed
`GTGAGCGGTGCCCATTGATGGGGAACGTGTTATGTGTTCTTTGAATACCTTATTGACAAGAACTATAACTTTTCCAGGCTCAGATGCTTTTTTCTTCTTGTCTAAGTGATCCTTGGCAATGTAAACAGCCACTCTGGTTTTTCCACTCCCTGTAGGGAGGCAGATGATGATATTCTTCCCTTCCAAGGCTGGCTGGGCAACTTCCATTTGGTAAGGCCTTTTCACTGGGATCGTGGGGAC`: “normalised bound fraction” 0.236 ratio.
`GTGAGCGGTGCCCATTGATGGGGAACGTCAAAAAAATATATATATGGTAAATTTGAAGAATGGTTAAAGAAGTGGGTGAACAGCCTTGGCATTTTCTCAACACTATATTTTTTTTGGTTGTTTACTTTGTTTTTTCTTGTAATTAAGTAATAATAAAAAGTTCAATAACAACAGCTCACTTTTTTGAAGAATGGTTAAAGAAGTGGGTGAGCAGCCTTGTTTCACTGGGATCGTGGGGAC` — result for “normalised bound fraction”: 0.359 ratio.
`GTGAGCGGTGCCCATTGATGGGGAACTTTGCTTTTCTCTCTCAAAGTATAATATGCTTGTTGAAACTTCAAACTTAAATGGGAGAGAAAAATTCTCTGAAAATATTTTGCCATTTTTCCTTGTTTACACAAAGAGAGGTGGATGTTTACATGTTTGATTCACATACACATGTAAAGCTGGTACTTTCGGTTAAAACTTTCTAGAACATAGCAATCAGGGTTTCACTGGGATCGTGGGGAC` — result for “normalised bound fraction”: 0.399 ratio.
`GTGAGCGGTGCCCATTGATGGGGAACATTTTATAAGACATCGAAGGAAAAAATGAAATTAGAATAAGCATTCTTTTGTTTTGTTTTGTTTAAGTAAGGAAAACAAAAATAGAAAGACAATGTAAACATCAGTGGGGAAATGTAAGTATGAACACACGAGGAACCATCTGGGAAAGTGATCACAGGATATGATACAGCACATGAAAAAATACACAAATAGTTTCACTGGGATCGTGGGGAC`: “normalised bound fraction” 0.444 ratio.
`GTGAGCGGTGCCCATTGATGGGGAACCCTGAGTTGGTGGAGCCACAAAAAGGAATCCCTGAGTCACTGCTTAGTCACTGGGCTGCCTTGGAGAGTTGATGAGACCTCTGGAAACTTTGTGTAAATAAAGAAATGAACGCTTACATTTTAACTACCGGAACTTGGAGGTTTGTTTGTTACTGCAACAAAGGTTAGCTTTATTGACTAATGCACTGTAACATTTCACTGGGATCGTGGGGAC`: “normalised bound fraction” 0.445 ratio.
`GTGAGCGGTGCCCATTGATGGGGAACCCTCTCTGTGTTAATAATTAGACAAAGCTGGAGTCAGAAGTGAAGTTTCTATTAGACAGAGAGGCATAAACAGAGTAAGAATGAAGTGTGTCTTGTGTACATATGGGAGGGAAAATGAGGTTCAAGAGTCCATAAAAGCTTTAGTAATATTTGATCAGCAGTGTTTGTGCCTTCTTTTTCCTGGACTGCAACTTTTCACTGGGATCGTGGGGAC` — result for “normalised bound fraction”: 0.279 ratio.
Under “normalised bound fraction”, `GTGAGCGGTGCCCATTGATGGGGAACGGTCAGAGAATGCTAATCAGCCATGAAGTGGGCTTGCCATGACTCTGACACTGTATCTCCTGGTGCACTCTGCGGTAGGTGCATCTTTGCTGAGTAATTTCAAAGTGAACTTGACGGGAAAGGAGACCTTAGCAGTCCTACAAAGGCAATTTTGCAAGCTGTCTGGCTGTGGAATTAGTGGAATGTTTTCTCATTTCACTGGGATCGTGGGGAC` is recorded as -0.0585 ratio.
For `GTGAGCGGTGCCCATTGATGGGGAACCAATGAAGAAATTGAGAAATTGATTACAGATACAATGAAGAAATTGAGAAATTAATTACAGATCCTTATGACCTATTTCACTTATCTGTTTCCTTATTTACTTTGCCATACATTCCTGTAGGCCCATAGAGAAATCCAGTACTGTAAAGTAAATGGAAGCTTGCATTCAGAATGGTTCATCATTAGCAGTTTCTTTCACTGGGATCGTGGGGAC`, “normalised bound fraction” read 0.382 ratio.

Some of these lines once more (study 1):
The E-score of `CTCTAGAA` is reported as -0.139.
`ACAACGCT` has an E-score of -0.0823.
The E-score of `CGTAAAAG` is reported as -0.113.
